Experimental data of several laboratories.
Each numbered part is a random draw from the data of one study; scales do not carry over between parts.
UniProt Q9Y2K2, sequence (whole entry, looked up): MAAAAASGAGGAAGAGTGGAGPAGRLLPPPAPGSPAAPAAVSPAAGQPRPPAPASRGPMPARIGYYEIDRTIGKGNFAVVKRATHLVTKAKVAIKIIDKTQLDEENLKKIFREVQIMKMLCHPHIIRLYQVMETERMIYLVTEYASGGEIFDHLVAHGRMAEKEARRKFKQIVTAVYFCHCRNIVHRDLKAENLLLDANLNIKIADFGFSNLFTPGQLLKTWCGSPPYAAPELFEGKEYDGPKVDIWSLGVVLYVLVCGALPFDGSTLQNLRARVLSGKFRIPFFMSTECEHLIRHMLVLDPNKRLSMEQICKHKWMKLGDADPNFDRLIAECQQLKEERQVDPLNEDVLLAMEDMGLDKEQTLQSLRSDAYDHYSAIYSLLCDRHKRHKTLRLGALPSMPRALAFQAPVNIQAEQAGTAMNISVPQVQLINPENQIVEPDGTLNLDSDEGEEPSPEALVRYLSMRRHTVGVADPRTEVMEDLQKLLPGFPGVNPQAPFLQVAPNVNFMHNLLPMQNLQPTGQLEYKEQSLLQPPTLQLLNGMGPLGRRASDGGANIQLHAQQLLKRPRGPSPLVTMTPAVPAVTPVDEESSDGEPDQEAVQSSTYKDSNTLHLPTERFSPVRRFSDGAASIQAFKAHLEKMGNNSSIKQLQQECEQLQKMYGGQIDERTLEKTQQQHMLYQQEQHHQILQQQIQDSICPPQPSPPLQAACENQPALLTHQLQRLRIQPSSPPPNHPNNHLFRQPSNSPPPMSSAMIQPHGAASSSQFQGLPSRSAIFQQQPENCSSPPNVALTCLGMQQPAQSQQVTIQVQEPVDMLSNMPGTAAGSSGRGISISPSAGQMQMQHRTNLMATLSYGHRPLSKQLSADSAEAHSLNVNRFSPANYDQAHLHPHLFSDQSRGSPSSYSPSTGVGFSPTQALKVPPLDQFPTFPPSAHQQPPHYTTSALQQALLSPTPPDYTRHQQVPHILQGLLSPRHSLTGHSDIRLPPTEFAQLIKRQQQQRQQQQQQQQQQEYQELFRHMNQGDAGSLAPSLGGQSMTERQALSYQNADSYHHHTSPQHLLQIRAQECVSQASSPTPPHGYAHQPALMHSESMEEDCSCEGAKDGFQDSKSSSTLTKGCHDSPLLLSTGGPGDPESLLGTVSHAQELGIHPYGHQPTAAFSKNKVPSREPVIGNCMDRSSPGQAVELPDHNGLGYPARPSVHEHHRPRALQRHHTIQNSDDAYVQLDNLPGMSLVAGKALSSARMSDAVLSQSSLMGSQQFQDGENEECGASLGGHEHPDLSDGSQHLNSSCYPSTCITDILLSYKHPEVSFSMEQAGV
UniProt P51617, sequence (whole entry, looked up): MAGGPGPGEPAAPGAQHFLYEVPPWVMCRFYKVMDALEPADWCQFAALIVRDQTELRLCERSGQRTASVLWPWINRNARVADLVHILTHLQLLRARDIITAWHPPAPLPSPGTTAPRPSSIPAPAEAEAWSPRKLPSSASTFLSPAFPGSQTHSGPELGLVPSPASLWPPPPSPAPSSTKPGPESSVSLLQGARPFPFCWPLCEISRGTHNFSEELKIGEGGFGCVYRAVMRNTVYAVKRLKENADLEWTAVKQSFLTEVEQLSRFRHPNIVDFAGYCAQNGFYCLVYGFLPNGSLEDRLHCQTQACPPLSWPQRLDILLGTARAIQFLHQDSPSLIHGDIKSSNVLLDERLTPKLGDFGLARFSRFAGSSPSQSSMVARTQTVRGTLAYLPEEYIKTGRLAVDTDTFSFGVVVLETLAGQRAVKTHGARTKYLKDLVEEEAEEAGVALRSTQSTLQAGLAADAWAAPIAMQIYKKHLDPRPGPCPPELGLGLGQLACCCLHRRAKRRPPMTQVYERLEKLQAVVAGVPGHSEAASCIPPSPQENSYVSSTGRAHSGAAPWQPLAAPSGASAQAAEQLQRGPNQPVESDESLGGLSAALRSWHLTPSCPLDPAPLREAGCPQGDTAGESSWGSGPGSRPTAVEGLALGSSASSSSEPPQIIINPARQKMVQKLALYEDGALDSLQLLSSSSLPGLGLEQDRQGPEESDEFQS

Study 1
Target: Cyclin-dependent kinase 9, with cyclin T1 (CDK9, Homo sapiens, UniProt P50750)
UniProt P50750, sequence (whole entry, looked up): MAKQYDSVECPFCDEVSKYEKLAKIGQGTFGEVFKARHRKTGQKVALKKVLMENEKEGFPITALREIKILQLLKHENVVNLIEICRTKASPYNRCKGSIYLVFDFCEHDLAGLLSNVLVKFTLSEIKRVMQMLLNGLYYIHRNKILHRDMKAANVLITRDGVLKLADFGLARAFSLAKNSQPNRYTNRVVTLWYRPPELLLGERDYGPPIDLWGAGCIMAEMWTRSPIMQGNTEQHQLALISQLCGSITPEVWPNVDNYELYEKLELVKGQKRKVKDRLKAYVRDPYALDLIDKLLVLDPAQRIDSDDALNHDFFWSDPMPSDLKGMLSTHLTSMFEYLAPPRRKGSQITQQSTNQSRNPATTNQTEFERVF
Effect on: enzyme activity
Mode: inhibitor
Tested at: 0.5 µM
Relative to: control
Measurement: remaining activity
Nc1ccc2ncnc(NCCc3ccc(Oc4ccccc4)cc3)c2c1: 101%
O=C1NC(=O)C(c2cn(CCCO)c3ncccc23)=C1c1cnccn1: 88.3%
Cc1cccc(-c2[nH]c(C(C)(C)C)nc2-c2ccc3c(c2)OCO3)n1: 88.5%
Nc1ncnc2n[nH]c(Nc3ccc(F)cc3)c12: 99.1%
Cc1nc(-c2ccccc2)c(-c2ccncc2)o1: 84.6%
O=C(CCCc1ccc(-c2ccccc2F)cc1)Nc1ccc(O)cc1: 103%
Nc1[nH]nc2nc3ccccc3nc12: 81.6%
Oc1ccc(-c2nc(-c3ccncc3)c(-c3ccc(F)cc3)[nH]2)cc1: 83.4%
CCOC(=O)c1c(C)[nH]c(/C=C2\C(=O)Nc3ccccc32)c1C: 94.7%
O=C(Nc1cccc(Nc2cc(Nc3cccc(C(F)(F)F)c3)ncn2)c1)C1CC1: 97.2%
COc1ccc(CNC(=O)Nc2ncc([N+](=O)[O-])s2)cc1: 88.1%
O=C1NC(=O)C(c2cn(CCCn3ccnc3)c3ccccc23)=C1Nc1ccccc1: 51.3%
COc1cc2nccc(Oc3ccc(NC(=S)NC(=O)c4ccccc4C)cc3)c2cc1OC: 104%
Cn1sc(=O)n(Cc2ccccc2)c1=O: 94.2%

Study 2
Host: mouse
Sample: microsomes or S9
Tested at: 2 µM
Time: 0.5 h
Measurement: remaining compound
COC(CNC(=O)NCc1ncnn1C(C)(C)C)C(C)C (stereo not drawn): 88.3%
Brc1c[nH]nc1-c1nc2c3ccccc3ncn2n1: > 99%
O=C(Nc1c(O)c(Cl)cc(Cl)c1Cl)c1nc(=O)[nH][nH]1: 81%
CC(C)n1/c(=N/C(=O)c2ccccc2Br)c(C#N)cc2c(=O)n3ccccc3cc21: 37.1%
COc1ccc2c[nH]c(=O)c(-c3nc4ccccn4c3Nc3ccc(OC)c(OC)c3)c2c1: 25.3%
CCN(CC)CCCOC(=O)C1(c2ccc(F)cc2)CCCC1: 4.09%
Cc1c(C(=O)NC2CCN(Cc3ccc(OCCCN(C)C)cc3)CC2)cnn1-c1ccccc1: > 100%
CC1(C)CC(=O)C(C(Cc2ccccc2)C2=C(O)CC(C)(C)CC2=O)=C(O)C1: < 1%

Study 3
Target: DNA polymerase theta, helicase domain (POLQ, Homo sapiens, UniProt O75417)
UniProt O75417, sequence (whole entry, looked up): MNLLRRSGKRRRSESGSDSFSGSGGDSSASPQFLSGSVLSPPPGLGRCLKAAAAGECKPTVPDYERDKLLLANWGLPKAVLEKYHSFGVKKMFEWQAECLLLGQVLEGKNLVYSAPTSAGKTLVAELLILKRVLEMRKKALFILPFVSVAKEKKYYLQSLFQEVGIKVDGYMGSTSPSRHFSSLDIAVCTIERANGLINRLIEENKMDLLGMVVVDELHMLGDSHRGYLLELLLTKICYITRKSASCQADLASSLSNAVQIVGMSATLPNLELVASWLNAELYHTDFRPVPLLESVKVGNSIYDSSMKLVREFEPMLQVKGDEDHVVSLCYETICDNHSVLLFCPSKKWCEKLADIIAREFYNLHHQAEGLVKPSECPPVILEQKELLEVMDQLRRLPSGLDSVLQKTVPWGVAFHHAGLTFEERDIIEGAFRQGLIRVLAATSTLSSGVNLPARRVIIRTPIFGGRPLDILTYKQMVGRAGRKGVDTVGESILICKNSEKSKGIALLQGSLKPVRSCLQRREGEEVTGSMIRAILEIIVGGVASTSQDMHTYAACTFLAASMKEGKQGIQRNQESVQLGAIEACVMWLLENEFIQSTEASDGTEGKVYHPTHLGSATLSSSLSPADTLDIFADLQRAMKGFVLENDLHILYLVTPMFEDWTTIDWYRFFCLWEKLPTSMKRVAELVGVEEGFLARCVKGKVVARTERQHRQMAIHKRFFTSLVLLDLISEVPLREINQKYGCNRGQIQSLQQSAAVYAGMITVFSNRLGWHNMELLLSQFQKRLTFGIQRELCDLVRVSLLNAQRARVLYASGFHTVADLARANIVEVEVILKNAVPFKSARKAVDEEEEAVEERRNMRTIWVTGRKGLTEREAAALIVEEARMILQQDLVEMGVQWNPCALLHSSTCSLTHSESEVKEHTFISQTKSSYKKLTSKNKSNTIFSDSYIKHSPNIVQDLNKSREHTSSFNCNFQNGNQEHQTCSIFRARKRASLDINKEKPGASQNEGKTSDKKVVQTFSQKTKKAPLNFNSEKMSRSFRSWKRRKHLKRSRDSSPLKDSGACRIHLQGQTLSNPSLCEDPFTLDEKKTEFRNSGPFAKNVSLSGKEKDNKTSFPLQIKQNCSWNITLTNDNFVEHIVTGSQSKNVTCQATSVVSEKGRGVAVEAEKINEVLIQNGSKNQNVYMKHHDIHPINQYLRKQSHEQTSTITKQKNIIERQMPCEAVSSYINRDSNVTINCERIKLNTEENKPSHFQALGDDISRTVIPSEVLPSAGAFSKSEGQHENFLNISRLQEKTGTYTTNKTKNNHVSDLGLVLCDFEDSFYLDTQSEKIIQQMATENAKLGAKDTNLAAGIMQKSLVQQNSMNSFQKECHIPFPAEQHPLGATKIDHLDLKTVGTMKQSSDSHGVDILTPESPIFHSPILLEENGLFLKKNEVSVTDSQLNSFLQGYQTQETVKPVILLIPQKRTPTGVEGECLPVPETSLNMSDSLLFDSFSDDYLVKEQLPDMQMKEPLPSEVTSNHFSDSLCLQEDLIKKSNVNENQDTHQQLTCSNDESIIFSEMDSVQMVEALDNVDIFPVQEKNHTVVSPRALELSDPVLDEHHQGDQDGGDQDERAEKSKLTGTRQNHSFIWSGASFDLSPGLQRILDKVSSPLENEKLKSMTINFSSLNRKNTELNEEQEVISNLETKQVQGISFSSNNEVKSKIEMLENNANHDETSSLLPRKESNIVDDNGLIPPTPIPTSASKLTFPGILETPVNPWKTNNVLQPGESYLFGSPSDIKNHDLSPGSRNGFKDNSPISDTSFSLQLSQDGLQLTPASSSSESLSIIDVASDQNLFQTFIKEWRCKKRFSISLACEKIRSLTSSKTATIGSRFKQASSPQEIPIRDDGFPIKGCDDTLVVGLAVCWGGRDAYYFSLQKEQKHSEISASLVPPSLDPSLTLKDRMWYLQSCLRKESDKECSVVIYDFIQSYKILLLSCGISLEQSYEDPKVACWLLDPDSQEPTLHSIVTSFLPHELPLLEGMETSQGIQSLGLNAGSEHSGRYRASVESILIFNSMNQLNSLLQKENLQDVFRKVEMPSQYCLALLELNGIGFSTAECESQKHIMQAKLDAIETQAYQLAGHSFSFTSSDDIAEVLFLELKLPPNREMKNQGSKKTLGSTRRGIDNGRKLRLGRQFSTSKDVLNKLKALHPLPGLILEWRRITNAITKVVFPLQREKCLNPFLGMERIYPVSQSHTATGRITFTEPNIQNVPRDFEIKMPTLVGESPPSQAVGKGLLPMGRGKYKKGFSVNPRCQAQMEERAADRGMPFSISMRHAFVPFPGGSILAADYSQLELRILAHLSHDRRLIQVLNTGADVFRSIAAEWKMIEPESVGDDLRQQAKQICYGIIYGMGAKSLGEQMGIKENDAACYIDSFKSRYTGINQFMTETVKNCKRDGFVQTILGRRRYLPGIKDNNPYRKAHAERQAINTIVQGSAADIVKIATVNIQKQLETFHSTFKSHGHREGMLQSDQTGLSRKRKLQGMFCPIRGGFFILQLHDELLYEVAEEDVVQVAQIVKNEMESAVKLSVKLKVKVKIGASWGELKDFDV
Mode: inhibitor
Tested at: concentration not given
Setting: average
With: without ssDNA
Measurement: remaining activity
O=C(Nc1ccccc1F)c1ccc2c(Cl)c3c(nc2c1)CCC3: 82.1%
O=c1[nH]c2cc(Cl)ccc2c(O)c1-c1cccc(Oc2ccccc2)c1: 69.6%
CCOc1ccccc1NC(=O)CSc1ncc(S(=O)(=O)c2ccc(C(C)(C)C)cc2)c(=O)[nH]1: 70.5%
O=C(Nc1cc2cc[nH]c2cn1)c1ccccc1: 53.3%
CCOc1nc2cccc(C(=O)OCc3oc(=O)oc3C)c2n1Cc1ccc(-c2ccccc2-c2noc(=O)[nH]2)cc1: 48.4%
CCCCCCCCCCC/C=C\C(C)(C)/C=C\CCCC(=O)O: 99.7%

Study 4
Structure (SMILES): O=C(Nc1cccnn1)N1CC(C/C=C/c2cncc(Oc3ccc(C(F)(F)F)cn3)n2)C1
Effect on: cell-free assay
Method: competition with immobilised ligand
Tested at: 1 µM
Measurement: remaining binding
Interleukin-1 receptor-associated kinase 1 (IRAK1, Homo sapiens, UniProt P51617): 66%
Non-receptor tyrosine-protein kinase TYK2, JH2 (TYK2, Homo sapiens, UniProt P29597): 79%
Dual specificity mitogen-activated protein kinase kinase 3 (MAP2K3, Homo sapiens, UniProt P46734): 72%
Serine/threonine-protein kinase SIK3 (SIK3, Homo sapiens, UniProt Q9Y2K2): 74%
Ephrin type-A receptor 3 (EPHA3, Homo sapiens, UniProt P29320): 95%
Cyclin-dependent kinase 8 (CDK8, Homo sapiens, UniProt P49336): 100%
Phosphatidylinositol 4,5-bisphosphate 3-kinase catalytic subunit alpha isoform (PIK3CA, Homo sapiens, UniProt P42336): 100%
Mitogen-activated protein kinase 13 (MAPK13, Homo sapiens, UniProt O15264): 100%
